Assay results collected from several papers.
Parts stem from different laboratories: compare values within a part only.

Study 1 — method: protein binding microarray; molecule type: double-stranded DNA, one strand shown; matrix: in vitro; tested at: not given; baseline: not given; direction: higher = stronger binding; quantity: E-score
Target: Histone acetyltransferase KAT6A, winged helix 1, GST fusion (KAT6A, Homo sapiens, UniProt Q92794, residues 1-85)
Notes: 8-mer, flanks averaged, mean of 2 arrays, mostly near background
Construct (chain): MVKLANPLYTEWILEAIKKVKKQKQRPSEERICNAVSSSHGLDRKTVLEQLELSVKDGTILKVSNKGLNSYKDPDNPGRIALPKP
CCCGGCGG: 0.476
ACACTTTC: -0.0946
AGATGGGG: -0.128
AAAGCTAT: 0.0092
CAATGCAC: -0.103
GCAACGTA: -0.0239
GAGTGGTA: -0.103
TTACTAAA: -0.0449
GATGCCGC: 0.367
CGTGGCGC: 0.339
CTCTAATA: -0.207
ACATTAAT: -0.0903
CCCATAGG: -0.114
GATTCCGC: 0.179
CGTTTTAG: 0.0264
AACTAATA: 0.0373
CATGGTAA: -0.108
GCTGTCTA: 0.0354
GGCATGCA: 0.0266
ATGTACGA: -0.166
TGGTCGAA: -0.368
CCTATAGG: -0.0782
CACGCCAG: 0.044

Study 2 — method: RNAcompete; molecule type: RNA; matrix: in vitro; tested at: 20 nM; notes: 7-mer, probes averaged, single round; baseline: mean of 7-mers; direction: higher = stronger binding; quantity: 7-mer Z-score
Target: PABPC1L2, full length, GST fusion (mouse, UniProt A0ABA7IW68)
Target sequence (chain): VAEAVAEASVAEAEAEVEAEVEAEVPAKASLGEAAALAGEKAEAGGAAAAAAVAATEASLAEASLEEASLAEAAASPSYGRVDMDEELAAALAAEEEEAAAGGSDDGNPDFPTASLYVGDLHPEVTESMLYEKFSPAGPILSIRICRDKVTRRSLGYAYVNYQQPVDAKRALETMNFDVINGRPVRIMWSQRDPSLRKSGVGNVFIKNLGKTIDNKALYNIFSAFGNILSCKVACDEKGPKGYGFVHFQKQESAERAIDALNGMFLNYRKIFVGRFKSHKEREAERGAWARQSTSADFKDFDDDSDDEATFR
UUGUAUG: -0.286
UAUGGUC: -0.0899
CGAUGGU: -0.0464
ACACGGG: 0.24
GUCAAAC: 0.0352
AUCAGCU: -0.171
CGGAUGG: 0.0895
CCGACGG: -0.385
AUAGAUU: -0.0844
CGAUAGU: -0.193
AGGAUAC: -0.0536
UGUUCGU: -0.541
UAUUAGG: 0.106
GCAAACU: 0.0352
AUUUAGA: 0.548
AUCAGCA: 0.00436
AACAACA: 0.715
AAGUCAU: -0.0663
UCUUAGU: -0.431
UCUACAC: -0.229

Study 3 — method: RNA Bind-n-Seq; molecule type: RNA; matrix: in vitro; tested at: 365 nM; baseline: no-protein control; direction: higher = stronger binding; quantity: RBNS enrichment (R)
Target: RNA binding protein fox-1 homolog 2, RRM domain, GST-SBP tag (RBFOX2, Homo sapiens, UniProt O43251-10, residues 100-194)
Notes: natural RNA segment, single round, ends assumed
Residues (chain): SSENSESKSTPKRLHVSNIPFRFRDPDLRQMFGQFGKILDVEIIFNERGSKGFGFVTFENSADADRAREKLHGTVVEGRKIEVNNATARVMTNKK
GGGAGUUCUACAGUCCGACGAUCCCCCAGGUCUACCCAGCCCCUGGCUGUCCUUGGUCCUGUCUCCCCUCCUGCUGUAUUCAGGGGUGCCCCCUGGUGCUCAGCCUCUACCACCCCCAACCCUGCUCUUGGGUUGGAAUUCUCGGGUGCCAA: 0.262
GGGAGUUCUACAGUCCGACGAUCUUCUAAUGACAACUUCUUUAAUCCUUCCGGGUCAUAUAUUAUAUUUCCAUAGUAUCACAUACUAUUAUUUAGUUGUUUACAAGACUCCAAUUUGAAUUCAGGAUUACAGUUGGAAUUCUCGGGUGCCAA: 0.488
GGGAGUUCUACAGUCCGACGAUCGACAUACCUGUGAUGGAACACACAAACAGACACGCACCAUGGGGGGUGGCCCACAAAGCCUUACACAAGGCGAGAUGUCAAUGAAGGGGUUGGCCUGUGUGUUCCAUCUCUGGAAUUCUCGGGUGCCAA: 0.924
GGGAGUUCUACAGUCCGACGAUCUGAGUGUGAGACACGUGCUUUGAACUGCUUUUCUAUUCAUGGAGCACUCCAUAGUCUCAAACUGUCCCCCUUAUGACCAACAGCACAUUUGUGAAGAGGUUCGCAGGGAUUGGAAUUCUCGGGUGCCAA: 0.441
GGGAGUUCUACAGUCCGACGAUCAGUGGGACUUCCGCGUCUCUCCCUAGUCUUAUCCCCUUUGGAUGAUGGCAGAAACUUCAUGAACCAGCCCUUUCUCAGAGCCAGUGAUGUGAGUGUAUCAGAAUGCCAGGUGGAAUUCUCGGGUGCCAA: 0.194
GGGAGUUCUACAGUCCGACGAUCCAUUUUAUAAUUUCCAUAUUAAUUUCAAAUAUGCUCGUGUUAUUCUUCAGUGAUUUCCACAAUUGUGCAUUUUAUUCUUUGGUUUAAGUACUGAAGCAUAUAAUGAAAGUUGGAAUUCUCGGGUGCCAA: 0.814
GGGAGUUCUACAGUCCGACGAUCCAUGCCCAUUAGCAGAGGCUGCUGCUGAUGUGGCAGCUGCUCCCUACCACCCGCCCUGGCUCCCCAGCUGCAGGUUGCACACCCUCAGCCUGAGAAUGUAAAAUAGGGCAUGGAAUUCUCGGGUGCCAA: 3.21
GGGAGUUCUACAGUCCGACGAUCAGGGUAAACUUUUGAGAUUUUUUUUUUUAAAACAAUUUUAUGUUUGUGCACUUUGUGUUAAUCUCACCAAAAAUCAUCAUAGGAAAGGAUUAUGGUUUUUAGUUAUGACAUGGAAUUCUCGGGUGCCAA: 0.666

Study 4 — method: aptamer microarray, sandwich; molecule type: DNA with 2'F-ANA; matrix: in vitro; tested at: 200 nM; together with: Cy3 exosite-II aptamer, 400 nM; direction: higher = stronger binding; quantity: mean fluorescence intensity; sequence: GGTTGGTGTGGTTGG
Target: Prothrombin, mature alpha-thrombin (F2, Homo sapiens, UniProt P00734)
Notes: whole 15-mer aptamer, many near background
2'F-ANA at 2 3 4 7 8 11 14 15: 349 a.u.
2'F-ANA at 1: 224 a.u.
2'F-ANA at 1 2 3 4 5 6 8 9 11 13 14 15: 53.9 a.u.
2'F-ANA at 6 8 15: 532 a.u.
2'F-ANA at 3 4 6 8 9 10 13 14: 158 a.u.
2'F-ANA at 2 3 4 10 11 12 15: 303 a.u.
2'F-ANA at 1 3 4 5 7 10 12 13 14: 49.7 a.u.
2'F-ANA at 1 2 3 4 5 6 7 8 9 10 11 12 13 14: 51.2 a.u.
2'F-ANA at 3 6 7 8 13 14 15: 585 a.u.
2'F-ANA at 2 4 5 8 10 12 15: 47.4 a.u.
2'F-ANA at 2 3 5 7 8 9 10 11 13 15: 66.5 a.u.
2'F-ANA at 4 7 10 11 12: 116 a.u.
2'F-ANA at 1 3 4 5 6 7 8 10 12 13 14: 49.5 a.u.
2'F-ANA at 3 4 6 7 8 10 12: 341 a.u.
2'F-ANA at 1 6 7 8 11 15: 185 a.u.
2'F-ANA at 1 2 4 6 8 9 10 11 12 15: 82.2 a.u.
2'F-ANA at 1 3 4 5 6 8 9 11 13 14 15: 50.6 a.u.
2'F-ANA at 1 2 7 10 15: 52.8 a.u.
2'F-ANA at 6 8 9 11 12 13: 567 a.u.
2'F-ANA at 2 4 6 9 10 11 13: 67.3 a.u.
2'F-ANA at 1 3 4 5 7 9 11 14: 102 a.u.
2'F-ANA at 1 2 3 5 7 8 10 11 14 15: 45.9 a.u.
2'F-ANA at 2 3 5 9 10 12 13: 86 a.u.
2'F-ANA at 5 9 10 11 12 15: 49.4 a.u.
2'F-ANA at 1 3 6 7 8 15: 331 a.u.
